Assay results collected from several papers.
Numbered parts are unrelated; each lists some results of a single study.

Series 1
Target: Ras GTPase-activating protein-binding protein 1, full length (G3BP1, Homo sapiens, UniProt Q13283)
UniProt Q13283, sequence (whole entry, looked up): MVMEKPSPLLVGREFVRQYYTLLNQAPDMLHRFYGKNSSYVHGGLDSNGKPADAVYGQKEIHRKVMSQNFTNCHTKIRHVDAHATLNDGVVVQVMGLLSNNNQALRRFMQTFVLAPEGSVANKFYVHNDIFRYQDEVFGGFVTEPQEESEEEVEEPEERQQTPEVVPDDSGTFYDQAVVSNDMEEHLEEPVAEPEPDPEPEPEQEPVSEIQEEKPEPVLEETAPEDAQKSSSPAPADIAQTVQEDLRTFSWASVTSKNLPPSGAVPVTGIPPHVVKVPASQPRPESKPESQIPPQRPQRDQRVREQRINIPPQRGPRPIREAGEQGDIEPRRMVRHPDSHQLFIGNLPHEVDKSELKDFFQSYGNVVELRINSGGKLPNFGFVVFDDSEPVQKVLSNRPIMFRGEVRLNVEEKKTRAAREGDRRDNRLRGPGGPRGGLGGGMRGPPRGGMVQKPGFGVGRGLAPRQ
Method: RNA Bind-n-Seq
Molecule type: RNA
Matrix: in vitro
Tested at: 200 nM
Notes: whole 134-nt RNA, ends assumed
Added: 150 mM KCl
Reference: input library
Direction: higher = stronger binding
| Sequence | log2 enrichment |
| --- | --- |
| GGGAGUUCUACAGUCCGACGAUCUUCGACGGCGCCGGGCGAGUGGCUGUUGAGCGGCGCCGCGGGAGUUCCGCAGGUUUCCCGUGUUCGCAGCGGAGCCGGAGGCCAGCUGAAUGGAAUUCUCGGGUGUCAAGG | -2.37 |
| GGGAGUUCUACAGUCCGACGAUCACCAUGCAGGUGGGCAUCUUUGGGAAGUGGGGCAAGGGGGGGAUAGGGAGGGGGGUAACACUUAAAGAACAGGUGGUCCCAGGUCGUUUCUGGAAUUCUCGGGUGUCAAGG | 1.45 |
| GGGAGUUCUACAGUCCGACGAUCUCAAGUCCUGUGCUACACAUCGUAUGUACCGAAUCGGUUUUUUUGGAAAGGAGGAAAGUAUUAUGUUACGCCGUUCGGAUCUGCACUUCCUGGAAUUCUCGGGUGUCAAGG | -0.699 |
| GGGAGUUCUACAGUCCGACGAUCCAAGUCCUGUGCUACACAUCGUAUGUACCGAAUCGGGAAAAGGGAAAAGGAAAAGGAAAGUAUUAUGUUACGCCGUUCGGAUCUGCACUUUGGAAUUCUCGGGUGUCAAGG | -0.909 |
| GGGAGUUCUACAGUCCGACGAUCCUGUGCUACACAUCGUAUGUACCGAAUCGGGGAAAAAGGGGAAAAAAAGGGGAAAAAGGGGAAAGUAUUAUGUUACGCCGUUCGGAUCUGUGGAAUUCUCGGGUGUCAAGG | -0.207 |
| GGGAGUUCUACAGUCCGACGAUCUCCUGUGCUACACAUCGUAUGUACCGAAUCGGGUUUUUGGGGUUUUUGGGUUUUUGGGGAAAGUAUUAUGUUACGCCGUUCGGAUCUGCAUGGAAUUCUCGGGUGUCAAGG | 0.174 |
| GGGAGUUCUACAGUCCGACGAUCCAAGUCCUGUGCUACACAUCGUAUGUACCGAAUCGGAGGAAAAAGGUUUUUUUGGAAAGUAUUAUGUUACGCCGUUCGGAUCUGCACUUCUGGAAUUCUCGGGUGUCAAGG | -1.15 |
| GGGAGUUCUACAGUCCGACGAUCUCCUGUGCUACACAUCGUAUGUACCGAAUCGGGUUUUUUGGGUUUUUUGGUUUUUUGGGAAAGUAUUAUGUUACGCCGUUCGGAUCUGCAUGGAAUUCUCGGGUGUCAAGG | -0.69 |
| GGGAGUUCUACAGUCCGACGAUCUCCUGUGCUACACAUCGUAUGUACCGAAUCAAACCCCCCCAAACCCCCAAACCCCCAAAAAAGUAUUAUGUUACGCCGUUCGGAUCUGCAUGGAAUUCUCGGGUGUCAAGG | 0.161 |
| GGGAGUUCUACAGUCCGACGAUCGUCCUGUGCUACACAUCGUAUGUACCGAAUCGGGGCCCCGGGGCCCCGGGGCCCCGGGGAAAGUAUUAUGUUACGCCGUUCGGAUCUGCAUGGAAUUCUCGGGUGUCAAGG | 1.54 |

Series 2
Target: RNA binding protein fox-1 homolog 2, RRM domain, GST-SBP tag (RBFOX2, Homo sapiens, UniProt O43251-10, residues 100-194)
Method: RNA Bind-n-Seq
Molecule type: RNA
Matrix: in vitro
Tested at: 365 nM
Notes: natural RNA segment, single round, ends assumed
Reference: no-protein control
Direction: higher = stronger binding
| Sequence | RBNS enrichment (R) |
| --- | --- |
| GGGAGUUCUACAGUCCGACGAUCAUCACAGUCCCGCCGUGUCUUAGAAACUGCUUUGGCCGAUGCAAACAGCCCCCUACCCGUCCCCCUCGCCUCACACGGUCCCUCUCCGAGGCCGAGAAGACCUUCUGUUCUGGAAUUCUCGGGUGCCAA | 0.45 |
| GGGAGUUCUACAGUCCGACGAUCUGCUUUUCACAUAAAAUUGAGACAGUGUAUAUUUAAUCUAAUUUAAAUUUUAAAGAGAUACUGGUAUUUUGAAAAUGCAACCUAUAUAUAUUCUUAAUAUCCUUUUAAGAUGGAAUUCUCGGGUGCCAA | 0.781 |
| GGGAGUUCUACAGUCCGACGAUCAAAAACAUUAUUGGCAUCUGGAGAUUAUUGCAACGUUCUCCUAACCUGUCACAGAAAGCAGUUGCUUGAAAAUUAGCCACAAAUUGGUACAAUGUUAUUUCAAUCUUAUAUGGAAUUCUCGGGUGCCAA | 0.785 |
| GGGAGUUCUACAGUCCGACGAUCAAUGCCCUGUCUGCUUGUCACCCUCUGAAUCUUCUUGAGCUACAGGUAGUGUUUUCAGUACCAUCAUCACUUCUGUCACUCACAGCAUAAUUGUGGAAGCAGAUUCAUUGUGGAAUUCUCGGGUGCCAA | 0.635 |
| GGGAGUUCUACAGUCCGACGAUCGUACCUCUUAAGGGACUCUAAUAUAUGCUAACGCUGGUCCUCUUAGCUCUGUGCUCUCACCAGACAAUGAAUGAACUAUGAAAGAUUUAGUCAACAGAAACUAUUUUAGGUGGAAUUCUCGGGUGCCAA | 0.467 |
| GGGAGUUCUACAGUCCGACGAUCACCACAGGACUGCAGGGUGCACAACUCCCCUGCCAAGGAAAACCAUGCAGUCCUCCCCUCCCUGGUCUCCUGCUUCAGCUCUGUACAACGAGGGCAAAGAUGCUAAAUCUUGGAAUUCUCGGGUGCCAA | 0.398 |
| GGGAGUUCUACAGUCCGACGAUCACCUAGGCAUAGAAACCAGUCUCUUUGGUUUGUUUGUAUUAUGUUCUACAAUAUUAAAGAUCUAAAUACAAAGGAUAUAAUACAGUCUUGAAUCUAAAGUAAUUUGCUAAUGGAAUUCUCGGGUGCCAA | 0.444 |
| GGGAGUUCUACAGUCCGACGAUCGGUGCCCAGCCUGGAGAAGGUUCUGGAGUUCAAAGCCCACGAAGGGGAGAUUGAAGACCUGGCUUUAGGGCCUGAUGGCAAGUUGGUAACCGUGGGCCGGGACCUUAAGGUGGAAUUCUCGGGUGCCAA | 0.793 |
| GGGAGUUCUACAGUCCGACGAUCUGUACAUUAAGCCAAUAAACUGCUUUAAUGAAUAACAAACUAUGUAGUGUGUCCCUAUUAUAAAUGCAUUGGAGAAGUAUUUUUAUGAGACUCUUUACUCAGGUGCAUGGUGGAAUUCUCGGGUGCCAA | 6.8 |
| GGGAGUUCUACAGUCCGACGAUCUACCUGGUGAGUAACUUAGAAAAGUGGUGUAAACUUGUACAUGGAAUUUUUUGAAUAUGCCUUAAUUUAGAAACUGAAAAAUAUCUGGUUAUAUCAUUCUGGGUGUGUUCUGGAAUUCUCGGGUGCCAA | 1.9 |
| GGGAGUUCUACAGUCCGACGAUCGCUGGCAGCUUUGACAGAAACUCUUCCGUGGUCGGCCUUUCACCUCUUCACUUUCGCUUGGUCCCAGCAGGACCUGAUGGCCACGCGUGCCUUGGCCACAGGAAGCUGCCUGGAAUUCUCGGGUGCCAA | 0.704 |
| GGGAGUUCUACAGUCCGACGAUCUUGUUUUAAAUUUUCAUCAAUGUAUAUAGAACAAAAUACCAUAUUAAAGAGGGGAAUGUGGAGGACUAAAGAUGACAGUUUGGACUUUUCUUUCUAUGCUAAGUAAUGUCUGGAAUUCUCGGGUGCCAA | 0.923 |

Series 3
Target: RING finger protein unkempt homolog, zinc fingers 1-6, GST-SBP tag (UNK, Homo sapiens, UniProt Q9C0B0, residues 30-357)
Method: RNA Bind-n-Seq
Molecule type: RNA
Matrix: in vitro
Tested at: not given
Notes: RNA with constant flanks, human-mouse chimeric sites, ends assumed
Reference: input RNA pool
Direction: higher = stronger binding
Residues (chain): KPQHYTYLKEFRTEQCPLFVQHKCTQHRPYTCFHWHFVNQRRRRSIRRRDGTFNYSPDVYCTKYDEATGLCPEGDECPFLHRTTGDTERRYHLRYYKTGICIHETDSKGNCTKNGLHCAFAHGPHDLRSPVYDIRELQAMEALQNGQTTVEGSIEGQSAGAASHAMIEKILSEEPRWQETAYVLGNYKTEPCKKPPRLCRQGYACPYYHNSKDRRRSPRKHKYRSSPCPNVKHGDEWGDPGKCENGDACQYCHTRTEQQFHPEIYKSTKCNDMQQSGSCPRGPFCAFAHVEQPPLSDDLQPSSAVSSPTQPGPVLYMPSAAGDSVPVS
| Sequence | bound/input enrichment [ratio] |
| --- | --- |
| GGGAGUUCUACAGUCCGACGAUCUCAACUGACAACAUCAAAUACCAGCCUAAAGGGGGGCAGGUACAAAUUGUUACCAAGAAAAUAGACCUAAGCCAUGUGACAUCCAAAUGUGGCUCUCUAAAGAACAUCCGCCACAGGCCACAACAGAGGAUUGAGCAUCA | 0.567 |
| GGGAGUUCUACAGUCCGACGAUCGAGUCGAGCAAACUUGAAACAAUUCGUUAUCUUGCAGCCUCAGUGUUUUUACUUGCCGCGAUAGCAUUGGGGUUUUAUAGGUUCUGGAAGGAGAACUUUAAUGCUCACUGCCGCUGCUGCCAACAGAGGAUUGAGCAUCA | 0.259 |
| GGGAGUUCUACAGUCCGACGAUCGUCAACAGCUGCCUCAACCCCAUCCUCUAUGCUUUCUUGGAUGAGAACUUCAAGGCCUGCUUCCGCAAGUUCUGCUGUGCUUCUGCCCUGCGCCGGGACGUGCAGGUGUCUGACCGCGUGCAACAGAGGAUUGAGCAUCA | 0.374 |
| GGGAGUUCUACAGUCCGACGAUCAGUGUGCAGGAAUUCAUGACCUUUACAAGUCAACUGAUUGUGGAGCGCUCGGGGAAAGGCAGCAGAGCUUCUGUCAAAGAACAAGAGUAUCUUUGCCACGUCUACGUCCGGAGCGACAGUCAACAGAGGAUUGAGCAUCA | 0.127 |
| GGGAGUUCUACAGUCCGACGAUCUCAUUUUUCUCUUUUCUUUCUUUCCUUAAAAGCCUAACUAAAGAUUAGUAAGAAAAGAAAACAGAAGCCAUGUUUCGAAGACCUGUGUUACAGGUAUUUCGUCAGUUUGUAAGACAUGAGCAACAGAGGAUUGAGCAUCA | 0.162 |
| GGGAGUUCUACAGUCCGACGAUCGUGUCCUGCUUUCAACUUAAAUCACUGAGGCAUCUCUACUGUUCUGUGAGCAUCAGGAUUUUAGUGCUGUGUCACCACAUGAGAGUUCAGAAGCAGCCUUUCUGUGGAGGGUGGGAAUGACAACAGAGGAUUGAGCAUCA | 0.151 |
| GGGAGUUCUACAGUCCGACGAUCCUGGCACUCUAUCAGAUAUAUUAAUUUUUAAAUGUAGAUAAAAUUUCAAAAAUGAAUGGCUACUUUACACGUUUAACUAGGGUUUUACUAUAUAUGUGUACAUAUGUAUAUAUAUAUAUACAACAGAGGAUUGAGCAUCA | 10.3 |
| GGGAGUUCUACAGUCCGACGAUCGGCUGCUGGUGACUGUCCUGGAGUGGCUGGAGUUCCCGCCGGAGCGCGGCCAGACUAAUUAUAGAAAAUGCCAAGUAGGAAGUUUGUUGAGGGUGAAGUGGUCAGAGGUCGAUGGCCUGGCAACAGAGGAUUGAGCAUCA | 3.83 |
| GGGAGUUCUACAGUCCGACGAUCUGGCGCCUGCGCUCCCCACUCGUGUUUUUAAGUGUAUUUUUAUAAGAUACAUGUAUUUACAAUUGAGUUUUUGAUUAAUAAUGCUGAAAACAUCUCUGAGAUUAUGAAAAAUGUUUCAAUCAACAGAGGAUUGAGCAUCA | 0.0986 |
| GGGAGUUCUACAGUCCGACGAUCCGGAAGUUCUUGAUUUAUCAUUUUUCUCUUUUCUUUCUUUCCUUUAGGAAAAGCCUAAAGAUUAGGUUGUAAGAAAAACAGAAGCCAGCCAUGUUUCACCUGUGUUACAGGUAUUUCGUCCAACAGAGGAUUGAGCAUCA | 0.281 |
| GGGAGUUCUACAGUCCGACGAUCUUUCUACUGCAGCAAACCAUGCUACGAAUUAAGGAUCCUAAGAAGUCCCUGGAUUUUUAUACGAGGGUUCUUGGACUGACCCUCCUGCAGAAGCUUGACUUCCCUGCUAUGAAGUUCUCGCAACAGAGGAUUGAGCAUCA | 0.276 |

Series 4
Target: TAR DNA-binding protein 43, full length, His tag (TARDBP, Homo sapiens, UniProt Q13148, residues 1-414)
Method: RNA Bind-n-Seq
Molecule type: RNA
Matrix: in vitro
Tested at: 20 nM
Notes: 6-mer, flanks averaged, single round
Added: 150 mM KCl
Reference: input library
Direction: higher = stronger binding
| Sequence | 6-mer enrichment (R) |
| --- | --- |
| GCAAAU | 0.716 |
| CCUUCG | 0.616 |
| ACACUG | 0.695 |
| CACACG | 0.747 |
| CCGCGU | 0.796 |
| ACGACU | 0.614 |
| CAUCUC | 0.544 |
| UUAAGA | 0.626 |
| GUGUCC | 0.835 |
| GCGAGG | 3.97 |
| GUUGCA | 0.831 |
| AGCACU | 0.626 |
| GCUUCA | 0.617 |
| UGUGCG | 1.67 |
| AUAUGU | 0.7 |
| CUCUGG | 0.849 |

A few entries again (series 4):
| Sequence | 6-mer enrichment (R) |
| --- | --- |
| GCUUCA | 0.617 |
| CCGCGU | 0.796 |
| GUUGCA | 0.831 |
| AGCACU | 0.626 |
| GCGAGG | 3.97 |
| CACACG | 0.747 |
| ACGACU | 0.614 |
| GUGUCC | 0.835 |
